Experimental data collected from several papers.
Each numbered part is a random draw from the data of one study; scales do not carry over between parts. Substitutions count along the parent as printed.

Sample 1
Target: RING finger protein unkempt homolog, zinc fingers 1-6, GST-SBP tag (UNK, Homo sapiens, UniProt Q9C0B0, residues 30-357)
Method: RNA Bind-n-Seq
Molecule type: RNA
Medium: in vitro
Tested at: not given
Setting: RNA with constant flanks, ends assumed
Relative to: input RNA pool
Direction: higher = stronger binding
Shared flanks, not repeated: GGGAGUUCUACAGUCCGACGAUC … CAACAGAGGAUUGAGCAUCA
Target sequence (chain): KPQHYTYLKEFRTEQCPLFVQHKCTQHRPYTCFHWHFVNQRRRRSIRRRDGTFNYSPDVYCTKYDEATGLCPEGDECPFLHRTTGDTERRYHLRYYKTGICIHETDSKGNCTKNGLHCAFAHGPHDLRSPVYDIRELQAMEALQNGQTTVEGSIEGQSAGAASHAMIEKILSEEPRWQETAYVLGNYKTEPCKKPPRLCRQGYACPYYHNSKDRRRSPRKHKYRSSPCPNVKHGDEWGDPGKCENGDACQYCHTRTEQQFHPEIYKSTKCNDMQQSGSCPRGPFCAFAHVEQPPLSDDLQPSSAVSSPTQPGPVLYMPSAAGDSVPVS
Oligonucleotide	bound/input enrichment [ratio]
ACAAAAACAGUCAUUAAAGAAGGUGAAGAACAACUUCAGACUCAGCAUCAGAAAACUUUUACCGGAAAAAUUCCAAUUAUGUUGCGGUCAACUUACUGCCUUUUGAAUGGCUUGACAGAU	0.14
AACCUUCCAUCGUUGCCAGAUAUCCCACCUAUACAGUUGGAAGAUGCUGGCUCAAGCCGUUCCGAUAAUCUACUGAGUAGAUAUAUCUCAGGCAGUCAUCUACCCCCUCAGCCUACAAGU	0.164
ACCAGAGAUGAGACCAACUAUGGCAUACCACAGCGUGCUCUGAGAGGUCACUCCCACUUCGUCCGUGAUGUUGUUAUCUCCUCUGAUGGUCAGUUUGCCCUCUCGGGCUCCUGGGACGGA	0.0896
AAUGCUUGUUGGGUGCAUAAACACUUCACGGAAGACAUCCAGACGCGUCAGUACCGCUCCACCGAGGUUUUAAUAGGAGCGGGGUACAGCACCCCUGCGGACAUCUGGAGCACGGCGUGU	0.1
UAGAUUUGAAUACAAAAUCUGAUACAAUAUGUUAAAGAAUUAAGAACCUGAAGAUGAAGAUUCCGAGCAUAUUUACCUGGAUUUUACUUAUUUGCUAGCAAAAUUCCCCCUUGUCACAGA	0.88
UCACUGCAGUCUUCCCUGGGUCUUCCCUUCAAAUGCCCAUGGCGUUUAUCCUUCUCCCUCUCCCGAAAUGUACUCGACUGUUAUAACGAGGGAGUGUGAUUGGGUCUCUGUAGGUCUCUG	0.175
UGCCAUUUGGUUCCAAGUAGGUGCAGGACAAAAUGGAACUGGGUUCUACAUGCUGGGUUGACCCGGUUACACAUUUUAGCCUAUGAAGUUAGUGGCCUAUAAAACUUAAUCCUUAACGUU	0.879
AUGAUGGGCCACGGAUCUGACUACUCACUCAGUGAAGUGCUGUGGGUCUGUGCCAACCUCUUCCGUGAUGUCCAAUUCAAGAUGAGUCAUAAGAGGAUCAUGCUGUUCACCAAUGAAGAC	0.107

Sample 2
Target: CCNB2, cyclin fold, Cln2 fusion (human)
Method: yeast growth competition, sequencing
Medium: yeast
Setting: weak parent motif
Relative to: not given
Direction: higher = stronger binding
Starting sequence: RBL2 docking peptide (human); STTRRRLFVENDS
Substitution	normalised enrichment score
STTRRRLFVKNDS [E10K]	-0.0936
STTRRRLFTENDS [V9T]	0.601
STTYRRLFVENDS [R4Y]	0.322
STTRWRLFVENDS [R5W]	0.00703
STTRLRLFVENDS [R5L]	0.0135
STTRRRLFVYNDS [E10Y]	-0.308

Sample 3
Target: Interferon regulatory factor 7, full length, phosphomimetic (IRF7, Homo sapiens, UniProt Q92985, residues 1-503, S471D/S472D/S475D/S476D/S477D/S483D/S484D/S487D)
Method: protein-binding microarray
Molecule type: double-stranded DNA, one strand shown
Medium: in vitro
Tested at: 2200 nM top
Setting: 60-bp whole probe
Added: salmon DNA 0.4 mg/ml
Relative to: random background probes
Direction: higher = stronger binding
Shared flanks, not repeated: GCCTAGCAC … GTGCTAGGTCTTGATTCGCTTGACGCTGCTG
Residues (chain): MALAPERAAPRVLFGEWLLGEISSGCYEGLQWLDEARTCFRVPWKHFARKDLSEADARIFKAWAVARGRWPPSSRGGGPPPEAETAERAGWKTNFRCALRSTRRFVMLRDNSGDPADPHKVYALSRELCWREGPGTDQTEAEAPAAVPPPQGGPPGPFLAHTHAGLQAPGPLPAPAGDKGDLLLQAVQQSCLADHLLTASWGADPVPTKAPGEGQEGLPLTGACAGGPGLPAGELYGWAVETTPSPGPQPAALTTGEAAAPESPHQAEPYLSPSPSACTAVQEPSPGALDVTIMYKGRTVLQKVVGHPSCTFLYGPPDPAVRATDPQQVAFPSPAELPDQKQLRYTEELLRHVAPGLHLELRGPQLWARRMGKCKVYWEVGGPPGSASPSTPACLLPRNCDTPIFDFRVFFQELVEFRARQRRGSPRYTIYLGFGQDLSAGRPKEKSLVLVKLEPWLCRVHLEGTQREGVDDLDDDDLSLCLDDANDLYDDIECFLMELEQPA
Oligonucleotide	fitted relative affinity [z-score]
TCACGTGTTTTTCTCCTACT	2.33
GACGATGTCAGTCTCGAGAC	0.168
TACGATCTCAGTTTCGAGAC	3.43
TTAGGTCTCTGTCTCGGTTA	0.787
TCACATTTTCATTTTGTACT	5.33
GACGGTATCCTAGTGCTGAC	0.0669
TACGATCTCAGTATCGAGAC	0.118
TCAGATTTTGCTTTCATACT	2.58

Other studies, line by line
Molecule	target	test	system	conditions	how to read	quantity	value
PhoQ, residues 284 288 289 292 302 303 SASVAL	PhoP, residues 12 14 15 18 19 HEGLL (Escherichia coli, UniProt P23836)	Sort-seq, item: YFP reporter	E. coli	PhoQ-PhoP variant library, added: 10 µM Mg2+	relative to: high Mg2+ state, higher = stronger signaling	fold induction	1.41

A few entries again (sample 1):
Oligonucleotide	bound/input enrichment [ratio]
AAUGCUUGUUGGGUGCAUAAACACUUCACGGAAGACAUCCAGACGCGUCAGUACCGCUCCACCGAGGUUUUAAUAGGAGCGGGGUACAGCACCCCUGCGGACAUCUGGAGCACGGCGUGU	0.1
UAGAUUUGAAUACAAAAUCUGAUACAAUAUGUUAAAGAAUUAAGAACCUGAAGAUGAAGAUUCCGAGCAUAUUUACCUGGAUUUUACUUAUUUGCUAGCAAAAUUCCCCCUUGUCACAGA	0.88
